Experimental data from different studies.
Protocols differ between the studies behind these lines. Several values in a cell are separate wells, animals, samples, runs or records.
Target: Protein kinase C alpha type (PRKCA, Homo sapiens, UniProt P17252)

SMILES | observed | action | method | concentration | baseline | quantity | value
NC(=O)C[C@H]1CCc2sc3ncnc(O[C@H]4CC[C@H](N5CCOCC5)CC4)c3c21 | enzyme activity | inhibitor |  | 10 µM |  | inhibition | 8%
COc1c(OCCCN2CCOCC2)ccc2c1N=C(NC(=O)c1cnc(N)nc1)N1CCN=C21 | kinase activity | inhibitor |  | 1 µM | untreated control | remaining activity | 120%
Cc1cccc(O[C@H]2CCC[C@@H](C(C)CNCc3ccncc3)C2)c1 (relative stereo) | enzyme activity |  |  | 1 µM |  | inhibition | 1%
Cc1cccc(-c2ccc3nc(NC(=O)C4CCCO4)nn3c2)c1 (centres unmarked) | enzyme activity |  | Dundee kinase panel | 10 µM |  | remaining activity | 87%
Nc1ncc(-c2cc(-c3cnn(CC(F)(F)F)c3)ncc2F)nc1C(=O)NC1CNCC(F)C1 (centres unmarked) | enzyme activity |  |  | 1 µM | DMSO control | remaining activity | 87.9%
C=CC(=O)Nc1cccc(-c2cnc3[nH]cc(C(=O)NC(C)(C)C)c3n2)c1 | enzyme activity | inhibitor |  | 0.1 µM |  | inhibition | 34%
O=c1c(-c2ccc(Cl)c(CN3CCOCC3)c2)coc2cc(O)ccc12 | enzyme activity | inhibitor |  | 1 µM |  | remaining activity | 100%
Cc1cccc(-c2ccc3nc(NC(=O)C4CCOCC4)nn3c2)c1 | enzyme activity |  | Dundee kinase panel | 10 µM |  | remaining activity | 97%
COCC12C(=O)NC3C4(C(OC)CC1O)C1CC5(O)C(OC)C(O)C(OC(C)=O)(C1C5OC(=O)c1ccccc1)C3(O)C(OC)C24 (centres unmarked) | kinase activity | inhibitor | ProQinase kinase profiling | 25 µM | control | remaining activity | 96% and 97%
O=C(Cc1ccc(OCc2ccccc2)cc1)NC1(C(=O)O)CCN(C(=O)c2ccc(-c3cccc(Cl)c3)cc2)CC1 | enzyme activity | inhibitor |  | 10 µM |  | activity vs control | 92%
Cc1[nH]nc2c1N=C(c1ccccc1Cl)c1cnc(N3CCOCC3)cc1N2 | enzyme activity | inhibitor |  | 0.5 µM |  | inhibition | -0.8%
CNC(=O)C[C@H](Cc1ccc(C#N)cc1)NC(=O)c1cc(-c2ccc(CN[C@H](C)c3ccc(C)cc3)o2)ccc1Cl | enzyme activity | inhibitor |  | 1 µM |  | activity vs control | 96%
COc1ccc(O)cc1-c1c[nH]c2ncc(-c3cncc(C(=O)N(C)C)c3)cc12 | binding |  | competition with immobilised ligand | 0.2 µM |  | inhibition | -0.71%
COc1ccc(C(=O)/C=C/c2ccccc2-c2c[nH]c3ccc(C#N)cc23)c(O)c1 | enzyme activity | inhibitor |  | 20 µM |  | inhibition | 10%

Excerpt of the above:
SMILES | observed | action | method | concentration | baseline | quantity | value
COCC12C(=O)NC3C4(C(OC)CC1O)C1CC5(O)C(OC)C(O)C(OC(C)=O)(C1C5OC(=O)c1ccccc1)C3(O)C(OC)C24 (centres unmarked) | kinase activity | inhibitor | ProQinase kinase profiling | 25 µM | control | remaining activity | 96% and 97%
O=C(Cc1ccc(OCc2ccccc2)cc1)NC1(C(=O)O)CCN(C(=O)c2ccc(-c3cccc(Cl)c3)cc2)CC1 | enzyme activity | inhibitor |  | 10 µM |  | activity vs control | 92%
